Assay results gathered from unrelated publications.
Lines come from different studies, so protocols differ. ± marks the error that the study gave.

SMILES = O=c1ccc2ncc(=O)n3c2n1C[C@H]3CN1CCC(NCc2cc3c(cn2)OCCC3)CC1; test system = healthy human volunteers, urine; conditions = oral, dose not given, with: rifampicin; how to read = baseline: compound alone; measurement = decrease in AUC(0-24); result = ~56%
SMILES = c1csc(CNc2cc[nH]n2)c1; test = micronucleus; test system = CD-1 mouse Hsd:ICR(CD-1), male, bone marrow; conditions = oral, 250 mg/kg/day, 3 days; measurement = PCE to total erythrocyte ratio; result = 0.504
SMILES = O=c1ccc2cc3ccoc3cc2o1; test = post-procedure stability; test system = rat plasma; conditions = 200 ng/mL, 1 h, room temperature; measurement = accuracy; result = 82%
SMILES = CC(C)C[C@H](NC(=O)[C@H](CCCCN)NC(=O)OCC1c2ccccc2-c2ccccc21)C(=O)N[C@H](C(=O)N[C@@H](Cc1ccccc1)C(=O)N[C@@H](Cc1ccccc1)C(=O)N[C@@H](CCCCN)C(=O)NCC(=O)N[C@@H](Cc1ccccc1)C(=O)N[C@@H](C)C(=O)N[C@@H](Cc1c[nH]c2ccccc12)C(=O)N[C@@H](CC(N)=O)C(=O)N[C@H](C(=O)N[C@H]1CSSC[C@@H](C(=O)N[C@@H](Cc2c[nH]cn2)C(=O)N[C@@H](CCCNC(=N)N)C(=O)N[C@@H](CCCNC(=N)N)C(=O)N[C@@H](C)C(=O)N[C@@H](CC(N)=O)C(N)=O)NC(=O)[C@H](C(C)C)NC(=O)[C@H](CCCNC(=N)N)NC(=O)[C@H](C(C)C)NC(=O)CNC(=O)[C@H](CC(N)=O)NC(=O)[C@H](CCCNC(=N)N)NC(=O)[C@H](Cc2ccc(O)cc2)NC(=O)[C@H](C(C)C)NC1=O)C(C)C)C(C)C; test system = ICR mice, blood; conditions = intraperitoneal, 10 mg/kg, day 5; measurement = lymphocytes; result = 72.6 ± 1.7%
SMILES = COc1ccc(-c2c(-c3ccc(C#N)c(F)c3)nc(N3CCC(N)CC3)n(C)c2=O)cc1F; test = measured: Anemia; test system = relapsed/refractory marginal zone lymphoma patients; conditions = oral, 60 mg, grade 3 to 4, dose expansion; measurement = treatment-related adverse event incidence; result = 0%
SMILES = O=C(Nc1ccccc1)C1CCN(C(=O)Oc2cccnc2)CC1; test = adverse event reporting; test system = healthy women; conditions = oral, 100 mg, 9 days; measurement = subjects with infections and infestations; result = 7.7%
SMILES = CC1CC(c2ccc(S(N)(=O)=O)cc2)=NN1c1ccc(C#N)c(Cl)c1 (centres unmarked); test system = PBS; conditions = 90 min; measurement = kinetic solubility; result = < 1 µM
SMILES = CCc1ccc(CC/C=C/c2ccc3c(c2)C(=O)CC3)cc1; test system = Sprague-Dawley rat, female; conditions = oral, 120 mg/kg/day, 14 days; measurement = Globulin; result = 24 g/L
SMILES = C[C@]1(CO)Cc2ncn(-c3ccc(C#N)c(Cl)c3)c2C(=O)O1; test system = human; conditions = oral, 10 mg, fed, single dose, geometric mean; measurement = AUC(0-inf); result = 2400 nmol·h/L
SMILES = CN1CC[C@@H](c2c(O)cc(O)c3c(=O)cc(-c4ccc(C(F)(F)F)cc4Cl)oc23)[C@@H]1CO; test = measured: Sepsis; test system = B-cell malignancies; conditions = oral, 100 mg, intermittent dosing; measurement = patients with adverse event; result = 0%
SMILES = COc1cc2c(Oc3ccc4[nH]c(C)cc4c3F)ccnc2cc1OCC1(N)CC1; test system = paediatric recurrent refractory sarcoma; conditions = 10 mg; measurement = Rash incidence; result = 0%
SMILES = CC[C@H](C)CCCCC(=O)N[C@@H](CCN)C(=O)N[C@H](C(=O)N[C@@H](CCN)C(=O)N[C@H]1CCNC(=O)[C@H]([C@@H](C)O)NC(=O)[C@H](CCN)NC(=O)[C@H](CCN)NC(=O)[C@H](CC(C)C)NC(=O)[C@@H](Cc2ccccc2)NC(=O)[C@H](CCN)NC1=O)[C@@H](C)O; test system = human, critically ill, no AKI, plasma; conditions = dose not given, mean; measurement = fAUC(0-24) steady state; result = 49.5 mg·h/L
SMILES = N[C@@H]1c2ccccc2OC12CCN(c1cnc3c(N4CCCc5ncccc54)n[nH]c3n1)CC2; test system = advanced metastatic solid tumour patients; conditions = oral, 150 mg once daily; measurement = TEAE leading to interruption; result = 100%
SMILES = [O-][S+]1CCc2nc(N3CCC(c4ncc(Cl)cn4)CC3)nc(NC3(CO)CCC3)c21 (centres unmarked); test = measured: Diarrhoea; test system = healthy male humans; conditions = single dose, all groups; measurement = adverse event incidence; result = 8.3%
SMILES = CCN1CCN(Cc2ccc(Nc3ncc(F)c(-c4cc(F)c5nc6n(c5c4)[C@H](C)CCC6)n3)nc2)CC1; test system = patients with advanced solid tumours; conditions = dose not given, phase Ia monotherapy; measurement = hypokalaemia all grades; result = 20.8%
SMILES = CCCCCOc1ccc(-c2ccc(-c3ccc(C(=O)N[C@H]4C[C@@H](O)[C@@H](OCC[N+](C)(C)C)NC(=O)[C@@H]5[C@@H](O)[C@@H](C)CN5C(=O)[C@H]([C@@H](C)O)NC(=O)[C@H]([C@H](O)[C@@H](O)c5ccc(O)cc5)NC(=O)[C@@H]5C[C@@H](O)CN5C(=O)[C@H]([C@@H](C)O)NC4=O)cc3)cc2)cc1; test system = adult patients not in ICU, plasma; conditions = intravenous, 400 mg loading, after first dose, geometric mean; measurement = AUC(0-168 h); result = 772 µg·h/mL
SMILES = CO[C@H]1C[C@@H]2CC[C@@H](C)[C@@](O)(O2)C(=O)C(=O)N2CCCC[C@H]2C(=O)O[C@H]([C@H](C)C[C@@H]2CC[C@@H](OC(=O)NCCOCCOCCOCCOCCOCCOCCOCCOCCC(=O)N3CCc4cc(Cn5nc(-c6ccc7oc(N)nc7c6)c6c(N)ncnc65)ccc4C3)[C@H](OC)C2)C[C@@H](O)[C@H](C)/C=C(\C)[C@@H](O)[C@@H](OC)C(=O)[C@H](C)C[C@H](C)/C=C/C=C/C=C/1C; test system = patients with advanced solid tumours; conditions = intravenous, 6 mg weekly, grade 3 or higher; measurement = AE leading to dose interruption; result = 41.7%
SMILES = C[C@H]1COCCN1c1nc(NCc2cccnc2C(F)(F)F)c2cccnc2n1; test system = anaesthetized rat; conditions = intravenous, 10 mg/kg; how to read = baseline: control; measurement = PR change; result = 13.8%
SMILES = CC[C@H](C)[C@H](NC(=O)[C@H](Cc1ccccc1)NC(=O)[C@H](CCC(=O)O)NC(=O)[C@H](CCCNC(=N)N)NC(=O)[C@H](C)NC(=O)[C@H](C)NC(=O)[C@H](CCC(N)=O)NC(=O)[C@H](CCC(=O)O)NC(=O)[C@H](CCC(=O)O)NC(=O)[C@H](CC(C)C)NC(=O)[C@H](Cc1ccc(O)cc1)NC(=O)[C@H](CO)NC(=O)[C@H](CO)NC(=O)[C@@H](NC(=O)[C@H](CC(=O)O)NC(=O)[C@H](CO)NC(=O)[C@@H](NC(=O)[C@H](Cc1ccccc1)NC(=O)[C@@H](NC(=O)CNC(=O)[C@H](CCC(=O)O)NC(=O)[C@H](C)NC(=O)CCc1cnc[nH]1)[C@@H](C)O)[C@@H](C)O)C(C)C)C(=O)N[C@@H](C)C(=O)N[C@@H](Cc1c[nH]c2ccccc12)C(=O)N[C@@H](CC(C)C)C(=O)N[C@H](C(=O)N[C@@H](CCCNC(=N)N)C(=O)NCC(=O)N[C@@H](CCCNC(=N)N)C(=O)N[C@@H](CCCCNC(=O)COCCOCCNC(=O)COCCOCCNC(=O)CC[C@H](NC(=O)CCCCCCCCCCCCCCCCC(=O)O)C(=O)O)C(=O)NCC(=O)NCC(=O)N[C@@H](CO)C(=O)N[C@@H](CCCCNC(=O)[C@H](CCCCNC(=O)[C@H](CCCCNc1c(NCCCCCN(O)C(=O)CCC(=O)NCCCCCN(O)C(=O)CCC(=O)NCCCCCN(O)C(C)=O)c(=O)c1=O)Nc1c(NCCCCCN(O)C(=O)CCC(=O)NCCCCCN(O)C(=O)CCC(=O)NCCCCCN(O)C(C)=O)c(=O)c1=O)NC(=O)[C@H](CCCCNc1c(NCCCCCN(O)C(=O)CCC(=O)NCCCCCN(O)C(=O)CCC(=O)NCCCCCN(O)C(C)=O)c(=O)c1=O)Nc1c(NCCCCCN(O)C(=O)CCC(=O)NCCCCCN(O)C(=O)CCC(=O)NCCCCCN(O)C(C)=O)c(=O)c1=O)C(=O)O)C(C)C [zirconium-89 labelled]; test = ex vivo gamma counting; test system = male Sprague-Dawley rats, kidney; conditions = intravenous, 1 nmol, 24 h; measurement = tissue uptake; result = 16.9 %ID/g
SMILES = Cn1cncc1-c1c(F)cncc1NC(=O)c1c(N)nn2cc(F)cnc12; test system = human patients; conditions = oral, 220 mg once daily; measurement = grade ≥3 platelet decrease incidence; result = 0%
SMILES = CC[C@H](C)CCCCC(=O)N[C@@H](CCN)C(=O)N[C@H](C(=O)N[C@@H](CCN)C(=O)N[C@H]1CCNC(=O)[C@H]([C@@H](C)O)NC(=O)[C@H](CCN)NC(=O)[C@H](CCN)NC(=O)[C@H](CC(C)C)NC(=O)[C@@H](Cc2ccccc2)NC(=O)[C@H](CCN)NC1=O)[C@@H](C)O; test system = critically ill patients, plasma; conditions = intravenous, 2.1 mg/kg/day, 24 h, median; measurement = AUC steady state; result = 78300 ng·h/mL
SMILES = O=C(c1ccc(F)c(F)c1Nc1ccc(I)cc1F)N1CC(O)([C@@H]2CCCCN2)C1; test system = patients aged 2 to 6 years; conditions = oral, dose not given; measurement = AE leading dose modification; result = 30%
SMILES = COc1ncccc1-c1cnn2ccc(N3CCN(C(=O)OC(C)C)CC3)nc12; test system = rat rotarod, plasma; conditions = 10 mg/kg, 180 min; measurement = free concentration; result = 22 nM
SMILES = C=C(CN(C(=O)c1c(C(F)F)nn(C)c1F)C1CC1)c1ccc(Cl)cc1Cl; test = static acute toxicity test; test system = zebrafish (Brachydanio rerio); conditions = 1.20 mg a.i./L, 96 h; measurement = mortality; result = 70%
SMILES = CNC(=O)c1cc(Oc2ccc(NC(=O)Nc3cc(C(C)(C)C)nn3-c3ccc4ncccc4c3)c(F)c2)ccn1; test = vomiting, NCI CTC v3.0; test system = human patients; conditions = oral, 150 mg twice daily, tablet, dose at onset; measurement = related SAE; result = 3%
SMILES = C=CC(=O)Nc1cc(Nc2nccc(Nc3cc(Cl)c(F)cc3C(C)(C)O)n2)c(OC)cc1N1CC[C@@H](N(C)C)C1; test = treatment-emergent adverse events; test system = human; conditions = oral, 100 mg, phase I clinical trial; measurement = incidence of blood creatine phosphokinase increased; result = 22.2%

A few entries again:
SMILES = O=c1ccc2ncc(=O)n3c2n1C[C@H]3CN1CCC(NCc2cc3c(cn2)OCCC3)CC1; test system = healthy human volunteers, urine; conditions = oral, dose not given, with: rifampicin; how to read = baseline: compound alone; measurement = decrease in AUC(0-24); result = ~56%
SMILES = N[C@@H]1c2ccccc2OC12CCN(c1cnc3c(N4CCCc5ncccc54)n[nH]c3n1)CC2; test system = advanced metastatic solid tumour patients; conditions = oral, 150 mg once daily; measurement = TEAE leading to interruption; result = 100%
SMILES = O=c1ccc2cc3ccoc3cc2o1; test = post-procedure stability; test system = rat plasma; conditions = 200 ng/mL, 1 h, room temperature; measurement = accuracy; result = 82%
SMILES = [O-][S+]1CCc2nc(N3CCC(c4ncc(Cl)cn4)CC3)nc(NC3(CO)CCC3)c21 (centres unmarked); test = measured: Diarrhoea; test system = healthy male humans; conditions = single dose, all groups; measurement = adverse event incidence; result = 8.3%
